{"data": "Published values of several laboratories", "Ricin A chain": "Ricin, A chain (Ricinus communis, UniProt P02879)", "note": "Protocols differ between the studies behind these lines. Several values in a cell are separate wells, animals, samples, runs or records. ± gives the spread as reported."}
{"Substance": "COc1cc(NC2(CNC(=O)CNC(=N)N)CCN(Cc3ccccc3)CC2)cc(OC)c1", "tested on": "NPFFR1 (Homo sapiens, UniProt Q9GZQ6)", "how to read": "reference: mu and kappa opioid over NPFF1", "measurement": "selectivity ratio", "value": "7 to 43 fold"}
{"Substance": "CCOP(=O)(OCC)Oc1ccc([N+](=O)[O-])cc1", "tested on": "Ache (Mus musculus, UniProt P21836)", "test system": "ES1+/+ mice, plasma", "conditions": "subcutaneous, 0.2 mg/kg, 0.5 h, toxicant challenge", "measurement": "inhibition", "value": "57.5 ± 1.4%"}
{"Substance": "AEOL 10150", "assay": "multiplex immunoassay", "test system": "rat, status epilepticus, hippocampus", "conditions": "sc, 7 mg/kg every 4 h, 24 h, from 5 min post-SE", "measurement": "IL-1β level", "value": "no effect"}
{"Substance": "C[C@@H]1NC(=O)[C@H](CCCNC(=N)N)NC(=O)[C@H](CCCNC(=N)N)NC(=O)[C@H](CCCNC(=N)N)NC(=O)[C@H](CO)NC(=O)[C@@H]2CSSC[C@H](NC(=O)CN)C(=O)N[C@@H](CSSC[C@@H](C(N)=O)NC(=O)[C@H](CO)NC(=O)[C@H](CCCNC(=N)N)NC1=O)C(=O)N[C@@H](CO)C(=O)N[C@@H](Cc1c[nH]cn1)C(=O)N1CCC[C@H]1C(=O)N[C@@H](C)C(=O)N2", "tested on": "CHRNA7 (Homo sapiens, UniProt P36544)", "assay": "ion current, antagonist", "test system": "Xenopus oocytes", "conditions": "10 µM, 5 min, after washout, with: acetylcholine", "how to read": "reference: control", "measurement": "recovery of response", "value": "0.5 ± 0.2%"}
{"Substance": "O=CN1CC[C@]23c4c5ccc(O)c4O[C@H]2[C@@H](O)C=C[C@H]3[C@H]1C5", "tested on": "OPRK1 (Cavia porcellus, UniProt P41144)", "assay": "antagonist", "test system": "guinea pig ileum", "measurement": "Ke", "value": "1890 nM"}
{"Substance": "Pillar[6]MaxQ", "tested on": "Salmonella typhimurium", "test system": "TA98, TA100, TA1535, TA1537", "conditions": "concentration not given", "measurement": "cytotoxicity", "value": "not toxic"}
{"Substance": "O[C@H]1[C@H](O)[C@@H](O)[C@H](O)[C@@H](O)[C@H]1O", "tested on": "Ricin A chain", "assay": "SPR", "conditions": "200 µM", "measurement": "binding", "value": "no binding"}
{"Substance": "COc1c(C)c2c(c(O)c1C/C=C(\\C)CCC(=O)O)C(=O)OC2", "tested on": "guaB (Bacillus anthracis, UniProt A0A6L8P2U9)", "assay": "inhibitor", "conditions": "with: IMP varied, 1.3 mM NAD+", "measurement": "Kii", "value": "4.83 ± 0.04 µM"}
{"Substance": "Nc1nc(=O)c2ncc(C(=O)O)nc2[nH]1", "tested on": "Ricin A chain", "assay": "differential scanning fluorimetry", "conditions": "500 µM, pH 7.5, 2 µM protein", "measurement": "ΔTm", "value": "2 °C"}
{"Substance": "CO[C@]12CC[C@@]3(C[C@@H]1[C@](C)(O)c1cccc(Cl)c1)[C@H]1Cc4ccc(O)c5c4[C@@]3(CCN1CC1CC1)[C@H]2O5", "tested on": "OPRK1 (Homo sapiens, UniProt P41145)", "assay": "G-protein activation, agonist", "conditions": "10 µM", "how to read": "reference: U-69593", "measurement": "stimulation", "value": "26 ± 2%"}
{"Substance": "CCOP(=S)(OCC)Oc1cc(C)nc(C(C)C)n1", "tested on": "Cholinesterase (Bche, Mus musculus, UniProt Q03311)", "test system": "ES1-/- mice, plasma", "conditions": "subcutaneous, 50.0 mg/kg, 2.0 h, toxicant challenge", "measurement": "inhibition", "value": "81.7 ± 1.1%"}
{"Substance": "CN(C)[C@]1(c2ccccc2)CC[C@]2(CC1)OCCc1c3cc(F)ccc3[nH]c12", "tested on": "OPRD1 (Homo sapiens, UniProt P41143)", "assay": "cAMP, agonist", "conditions": "human receptor", "measurement": "Emax", "value": "90.4 ± 2.2%"}
{"Substance": "Cc1cc2c(-c3ccco3)cnc(N[C@H]3CCN(C)C[C@@H]3C(=O)NC3CCCCC3)c2[nH]c1=O", "tested on": "OPRK1 (Homo sapiens, UniProt P41145)", "assay": "binding, radioligand binding", "conditions": "10 µM", "measurement": "inhibition", "value": "34.9%"}
{"Substance": "N-carbamoyl-aspartate", "tested on": "Dihydroorotase (Bacillus anthracis, UniProt Q81WF0, N93A)", "assay": "substrate", "conditions": "N93A mutant", "measurement": "Km", "value": "1180 ± 251 µM"}
{"Substance": "CC[C@H](C)[C@@H]1NC(=O)[C@H](CC(N)=O)NC(=O)[C@H](Cc2ccc(O)cc2)NC(=O)[C@H]([C@@H](C)O)NC(=O)[C@@H]2CSSC[C@@H]3NC(=O)[C@H](CC(N)=O)NC(=O)[C@H](Cc4ccc(O)cc4)NC(=O)[C@H](C(C)C)NC(=O)CNC(=O)[C@H]([C@@H](C)O)NC(=O)CNC(=O)[C@H](CCCCN)NC(=O)[C@@H]4CSSC[C@H](NC(=O)[C@H](CO)NC(=O)[C@H](CC(C(=O)O)C(=O)O)NC(=O)CNC3=O)C(=O)N[C@@H](CO)C(=O)N[C@H]3CSSC[C@H](NC(=O)CNC(=O)[C@H](CO)NC(=O)[C@H](CCCCN)NC(=O)[C@H](CCSC)NC(=O)[C@H](CO)NC(=O)CNC1=O)C(=O)N[C@@H](C)C(=O)N[C@@H](CSSC[C@H](NC(=O)[C@H](CO)NC(=O)[C@H](Cc1c[nH]cn1)NC(=O)[C@H](CC(C)C)NC(=O)CNC(=O)[C@H](CC(C(=O)O)C(=O)O)NC3=O)C(=O)N[C@@H](CCCNC(=N)N)C(=O)N2)C(=O)N[C@@H]([C@@H](C)CC)C(=O)N[C@H](C(=O)N[C@H](C(=O)N[C@@H](Cc1ccc(O)cc1)C(=O)N[C@@H](Cc1ccc(O)cc1)C(=O)O)[C@@H](C)O)CSSC[C@H](NC(=O)[C@@H](N)CCCCN)C(=O)N[C@@H](CC(N)=O)C(=O)N[C@@H](Cc1ccccc1)C(=O)N[C@@H](CC(=O)O)C(=O)N[C@@H](CCCCN)C(=O)N4", "tested on": "Nicotinic acetylcholine receptor alpha-1/beta-1/delta/epsilon (Homo sapiens, UniProt P02708+P11230+Q04844+Q07001)", "assay": "ion current, antagonist", "test system": "Xenopus oocytes", "measurement": "Hill slope", "value": 0.71}
{"Substance": "CC(C)C[C@@H]1NC(=O)[C@H](CCC(=O)O)NC(=O)[C@@H]2CCCN2C(=O)[C@H](Cc2c[nH]cn2)NC(=O)[C@H](CCCC(=O)O)NC(=O)[C@H](CC(C)C)NC(=O)[C@H](Cc2c[nH]cn2)NC(=O)[C@@H]2CSSC[C@H](NC(=O)CN)C(=O)N[C@@H](CSSC[C@@H](C(N)=O)NC1=O)C(=O)N[C@@H](CO)C(=O)N[C@@H](Cc1c[nH]cn1)C(=O)N1CCC[C@H]1C(=O)N[C@@H](C)C(=O)N2", "tested on": "Neuronal acetylcholine receptor; alpha3/beta2 (Rattus norvegicus, UniProt P04757+P12390)", "how to read": "reference: IC50 α6/α3β2β3 over α3β2", "measurement": "selectivity ratio", "value": "52 and ~52"}
{"note": "Excerpt of the above:"}
{"Substance": "COc1c(C)c2c(c(O)c1C/C=C(\\C)CCC(=O)O)C(=O)OC2", "tested on": "guaB (Bacillus anthracis, UniProt A0A6L8P2U9)", "assay": "inhibitor", "conditions": "with: IMP varied, 1.3 mM NAD+", "measurement": "Kii", "value": "4.83 ± 0.04 µM"}
{"Substance": "Nc1nc(=O)c2ncc(C(=O)O)nc2[nH]1", "tested on": "Ricin A chain", "assay": "differential scanning fluorimetry", "conditions": "500 µM, pH 7.5, 2 µM protein", "measurement": "ΔTm", "value": "2 °C"}
